Measured values of several laboratories.
Protocols differ between the studies behind these lines. ± marks the error that the study gave.

Compound	assay	system	setting	IC50
Fc1cccc(/C=N/N=C/c2cccc(F)c2)c1	nitric oxide scavenging	–	antioxidant	1550 µM
O=C1O[C@H]([C@@H](O)CO)C(O)=C1O	DPPH radical scavenging	–	–	12.8 ± 0.44 µg/mL
Fc1ccc(/C=N/N=C/c2ccc(F)cc2)cc1	nitric oxide scavenging	–	antioxidant	1830 µM
CC[C@H](C)[C@H](NC(C)=O)C(=O)N[C@H]1CSSC[C@@H](C(=O)N[C@H](C(N)=O)[C@@H](C)O)NC(=O)[C@H](CCCNC(=N)N)NC(=O)[C@H](Cc2c[nH]cn2)NC(=O)[C@H](C)NC(=O)CNC(=O)[C@H](Cc2c[nH]c3ccccc23)NC(=O)[C@H](CC(=O)O)NC(=O)[C@H](CCC(N)=O)NC(=O)[C@H](Cc2cn(C)c3ccccc23)NC(=O)[C@H](C(C)C)NC1=O	complement activation, inhibitor, ELISA, refers to: C5b-9	normal human serum	–	0.49 ± 0.06 µM
CCOC(=O)C1=C(CCl)NC(=O)NC1c1ccc(C(C)C)cc1 (stereo not drawn)	nitric oxide scavenging	–	–	147 µM
O=C(Cc1ccc(Cl)cc1Cl)NNC(=S)N=Cc1ccccc1Cl	hydroxyl radical scavenging	–	–	29.1 ± 2.15 µM
O=C(Nc1ccccc1Cl)N1CCCN(c2nc(-c3ccccc3)ns2)CC1	CoA-CPM signal reduction, CPM fluorescence thiol	cell-free biochemical	assay interference counter-screen, added: CoA replacing acetyl-CoA	> 125 µM
CC[C@H](C)[C@H](NC(=O)[C@H](CCCNC(=N)N)NC(=O)[C@H](CCC(=O)O)NC(C)=O)C(=O)N[C@H]1CSSC[C@@H](C(=O)N[C@H](C(N)=O)[C@@H](C)O)NC(=O)[C@H](CCCNC(=N)N)NC(=O)[C@H](Cc2c[nH]cn2)NC(=O)[C@H](Cc2cccc3ccccc23)NC(=O)CNC(=O)[C@H](Cc2c[nH]c3ccccc23)NC(=O)[C@H](CC(=O)O)NC(=O)[C@H](CCC(N)=O)NC(=O)[C@H](Cc2c[nH]c3ccccc23)NC(=O)[C@H](C(C)C)NC1=O	complement activation, inhibitor, ELISA, refers to: C3b	normal human serum	–	2.85 ± 0.11 µM
c1ccc(Nc2nc(-c3ccccc3)ns2)cc1	CoA-CPM signal reduction, CPM fluorescence thiol	cell-free biochemical	assay interference counter-screen, added: CoA replacing acetyl-CoA	> 125 µM
CCOC(=O)C1=C(CCl)NC(=O)NC1c1ccc(OC)cc1 (stereo not drawn)	nitric oxide scavenging	–	–	266 µM
O=C(O)c1cccnc1Nc1cccc(C(F)(F)F)c1	input conductance	vascular smooth muscle cells, guinea pig, MA arteriole segments in situ	–	62 µM
O=S1(=O)C=C(N2CCN(C3CCCCC3)CC2)c2ccccc21	CoA-CPM signal reduction, CPM fluorescence thiol	cell-free biochemical	assay interference counter-screen, added: CoA replacing acetyl-CoA	> 125 µM
CN1CC(Oc2cnc(C#N)cc2-c2ccn3nc(NC(=O)C4CC4)cc3c2)C1	TNF release	mouse whole blood	added: LPS 150 ng/mL	0.67 µM
C[C@@H]1O[C@@H](O[C@H]2[C@H](O[C@H]3CC[C@]4(C)[C@H]5CC=C6[C@@H]7CC(C)(C)CC[C@]7(C(=O)O[C@@H]7O[C@H](CO[C@@H]8O[C@H](CO)[C@@H](O[C@@H]9O[C@@H](C)[C@H](O)[C@@H](O)[C@H]9O)[C@H](O)[C@H]8O)[C@@H](O)[C@H](O)[C@H]7O)CC[C@@]6(C)[C@]5(C)CC[C@H]4C3(C)C)OC[C@H](O)[C@@H]2O)[C@H](O)[C@H](O)[C@H]1O	peroxynitrite scavenging, dihydrorhodamine fluorescence	–	–	48.7 ± 0.94 µM
CC(=O)N[C@@H](CC(N)=O)C(=O)N[C@@H](CC(N)=O)C(=O)N[C@@H](CC(C)C)C(=O)N[C@H]1CSSC[C@@H](C(=O)N[C@H](C(N)=O)[C@@H](C)O)NC(=O)[C@H](CCCNC(=N)N)NC(=O)[C@H](Cc2c[nH]cn2)NC(=O)[C@H](Cc2cccc3ccccc23)NC(=O)CNC(=O)[C@H](Cc2c[nH]c3ccccc23)NC(=O)[C@H](CC(=O)O)NC(=O)[C@H](CCC(N)=O)NC(=O)[C@H](Cc2c[nH]c3ccccc23)NC(=O)[C@H](C(C)C)NC1=O	complement activation, inhibitor, ELISA, refers to: C3b	normal human serum	–	2.75 ± 0.11 µM
CC(C)(C)c1ccc(S(=O)(=O)Nc2cccc(Cl)c2)cc1	CoA-CPM signal reduction, CPM fluorescence thiol	cell-free biochemical	assay interference counter-screen, added: CoA replacing acetyl-CoA	> 125 µM
CCCCC(O)c1ccccc1C(=O)O (stereo not drawn)	platelet aggregation, inhibitor	platelets	added: ADP 10 µmol/L	960 ± 70 µM
Nc1ccc(/C=N/N=C/c2ccc(N)cc2)cc1	nitric oxide scavenging	–	antioxidant	622 µM
C[C@@H]1O[C@@H](O[C@H]2[C@H](O[C@H]3CC[C@@]4(C)[C@@H](CC[C@]5(C)[C@@H]4CC=C4[C@@H]6CC(C)(C)CC[C@]6(C(=O)O[C@@H]6O[C@H](CO[C@@H]7O[C@H](CO)[C@@H](O)[C@H](O)[C@H]7O)[C@@H](O)[C@H](O)[C@H]6O)CC[C@]45C)[C@]3(C)CO)OC[C@H](O)[C@@H]2O)[C@H](O)[C@H](O)[C@H]1O	peroxynitrite scavenging, dihydrorhodamine fluorescence	–	–	48.7 ± 4.3 µM
CCN(CC)c1ccc(/C=N/c2ccc(Br)cc2)c(O)c1	nitric oxide scavenging, sodium nitroprusside	–	–	91.1 µM
O=C1CC(c2cn(Cc3ccccc3)c3ccccc23)C(=O)N1c1ccc(Br)cc1 (stereo not drawn)	CoA-CPM signal reduction, CPM fluorescence thiol	cell-free biochemical	assay interference counter-screen, added: CoA replacing acetyl-CoA	> 125 µM
Cc1ccc(S(=O)(=O)NNC(=O)COC(=O)c2ccccc2Nc2cccc(C(F)(F)F)c2)cc1	nitric oxide scavenging, Griess	–	30 min, 25 °C, added: sodium nitroprusside 5 mM	431 ± 16 µM
Cc1cc(C(C)(C)C)c(O)c(C(C)(C)C)c1	ferric reducing power, FRAP	–	–	60 ± 2 µg/mL
COc1ccc(C=NC(=S)NNC(=O)Cc2ccc(Cl)cc2Cl)cc1	hydroxyl radical scavenging	–	–	35.6 ± 3.03 µM

Compound	assay	system	setting	IC50
Cc1c(CN2CCN(C(=O)[C@H](C)O)CC2)sc2c(N3CCOCC3)nc(-c3cnc(N)nc3)nc12	Akt phosphorylation	cancer patients, Chondrosarcoma primary tumour, plasma	–	0.0067 µg/mL
COc1cc(NCCCC(C)N)c2nccc(Cl)c2c1 (stereo not drawn)	angiogenesis, intersomitic vessel count	zebrafish embryo	–	6.3 µM
CC[C@H](C)[C@H](NC(C)=O)C(=O)N[C@H]1CSSC[C@@H](C(=O)N[C@H](C(N)=O)[C@@H](C)O)NC(=O)[C@H](CCCNC(=N)N)NC(=O)[C@H](Cc2c[nH]cn2)NC(=O)[C@H](C)NC(=O)CNC(=O)[C@H](Cc2c[nH]c3ccccc23)NC(=O)[C@H](CC(=O)O)NC(=O)[C@H](CCC(N)=O)NC(=O)[C@H](Cc2c[nH]c3ccccc23)NC(=O)[C@H](C(C)C)NC1=O	complement activation, inhibitor, ELISA, refers to: C5b-9	normal human serum	–	0.6 ± 0.04 µM
CCN(CC)c1ccc(/C=N/c2ccc(Cl)cc2)c(O)c1	nitric oxide scavenging, sodium nitroprusside	–	–	31.7 µM
FC(F)(F)c1ccc(/C=N/N=C/c2ccc(C(F)(F)F)cc2)cc1	nitric oxide scavenging	–	antioxidant	1800 µM
CC(=O)Oc1ccccc1C(=O)O	platelet aggregation, inhibitor	platelets	added: ADP 10 µmol/L	900 ± 80 µM
CCOC(=O)C1=C(CCl)NC(=O)NC1c1cccc(Cl)c1 (stereo not drawn)	nitric oxide scavenging	–	–	93.6 µM
O=C1O[C@H]([C@@H](O)CO)C(O)=C1O	DPPH radical scavenging, DPPH	–	–	19.7 µg/mL
CC[C@H](C)[C@H](NC(C)=O)C(=O)N[C@H]1CSSC[C@@H](C(=O)N[C@H](C(N)=O)[C@@H](C)O)NC(=O)[C@H](CCCNC(=N)N)NC(=O)[C@H](Cc2c[nH]cn2)NC(=O)[C@](C)(CC)NC(=O)CNC(=O)[C@H](Cc2c[nH]c3ccccc23)NC(=O)[C@H](CC(=O)O)NC(=O)[C@H](CCC(N)=O)NC(=O)[C@H](Cc2c[nH]c3ccccc23)NC(=O)[C@H](C(C)C)NC1=O	complement activation, inhibitor, ELISA, refers to: C5b-9	normal human serum	–	0.71 ± 0.07 µM
Cc1ccc(C=NC(=S)NNC(=O)Cc2ccc(Cl)cc2Cl)cc1	iron chelation	cell-free	EDTA as standard	56.4 ± 1.18 µM
Clc1ccc(/C=N/N=C/c2ccc(Cl)cc2Cl)c(Cl)c1	ferric reducing antioxidant power, FRAP	–	–	2250 µM
CC[C@H](C)[C@H](NC(=O)[C@H](CO)NC(=O)[C@H](CCCNC(=N)N)NC(C)=O)C(=O)N[C@H]1CSSC[C@@H](C(=O)N[C@H](C(N)=O)[C@@H](C)O)NC(=O)[C@H](CCCNC(=N)N)NC(=O)[C@H](Cc2c[nH]cn2)NC(=O)[C@H](Cc2cccc3ccccc23)NC(=O)CNC(=O)[C@H](Cc2c[nH]c3ccccc23)NC(=O)[C@H](CC(=O)O)NC(=O)[C@H](CCC(N)=O)NC(=O)[C@H](Cc2c[nH]c3ccccc23)NC(=O)[C@H](C(C)C)NC1=O	complement activation, inhibitor, ELISA, refers to: C5b-9	normal human serum	–	1.99 ± 0.11 µM
CCN(CC)c1ccc(/C=N/c2ccc(F)cc2)c(O)c1	ferric reducing power, FRAP	–	–	> 400 µM
O=S(=O)(c1ccc(Br)c2nsnc12)N1CCC(Cc2ccccc2)CC1	CoA-CPM signal reduction, CPM fluorescence thiol	cell-free biochemical	assay interference counter-screen, added: CoA replacing acetyl-CoA	> 125 µM
Fc1ccc(/C=N/N=C/c2ccc(F)cc2F)c(F)c1	nitric oxide scavenging	–	antioxidant	518 µM
CC(=O)N[C@@H](CC(N)=O)C(=O)N[C@@H](CCCNC(=N)N)C(=O)N[C@@H](CC(C)C)C(=O)N[C@H]1CSSC[C@@H](C(=O)N[C@H](C(N)=O)[C@@H](C)O)NC(=O)[C@H](CCCNC(=N)N)NC(=O)[C@H](Cc2c[nH]cn2)NC(=O)[C@H](Cc2cccc3ccccc23)NC(=O)CNC(=O)[C@H](Cc2c[nH]c3ccccc23)NC(=O)[C@H](CC(=O)O)NC(=O)[C@H](CCC(N)=O)NC(=O)[C@H](Cc2c[nH]c3ccccc23)NC(=O)[C@H](C(C)C)NC1=O	complement activation, inhibitor, ELISA, refers to: C3b	normal human serum	–	1.9 ± 0.1 µM
COc1cc(-c2cc(=O)c3c(O)c(OC)c(O)cc3o2)ccc1O	ABTS radical scavenging	–	–	12.4 ± 0.35 µg/mL
O=C(Cc1ccc(Cl)cc1Cl)NNC(=S)N=Cc1ccccc1[N+](=O)[O-]	hydroxyl radical scavenging	–	–	63.6 ± 1.73 µM
COc1cc(/C=N/N=C/c2cc(OC)c(OC)c(OC)c2)cc(OC)c1OC	nitric oxide scavenging	–	antioxidant	378 µM
COc1ccc(Nc2nnc(S)s2)cc1	CoA-CPM signal reduction, CPM fluorescence thiol	cell-free biochemical	assay interference counter-screen, added: CoA replacing acetyl-CoA	54 ± 2 µM
CC[C@H](C)[C@H](N)C(=O)N[C@H]1CSSC[C@@H](C(=O)N[C@H](C(N)=O)[C@@H](C)O)NC(=O)[C@H](CCCNC(=N)N)NC(=O)[C@H](Cc2c[nH]cn2)NC(=O)[C@H](Cc2c[nH]cn2)NC(=O)CNC(=O)[C@H](Cc2c[nH]c3ccccc23)NC(=O)[C@H](CC(=O)O)NC(=O)[C@H](CCC(N)=O)NC(=O)[C@H](C(C)C)NC(=O)[C@H](C(C)C)NC1=O	complement activation, inhibitor, ELISA, refers to: C5b-9	normal human serum	–	13 ± 1.13 µM
COc1cccc(/C=N/N2C(=O)c3ccccc3NC2c2cccc(OC)c2O)c1O (stereo not drawn)	photosynthetic electron transport	Spinacia oleracea chloroplasts	–	344 µM
COc1ccc(CNC2CC(=O)N(c3ccc(Br)cc3)C2=O)cc1 (stereo not drawn)	CoA-CPM signal reduction, CPM fluorescence thiol	cell-free biochemical	assay interference counter-screen, added: CoA replacing acetyl-CoA	> 125 µM
CCOC(=O)C1=C(CSC2=NCCS2)NC(=O)NC1c1ccc(F)cc1F (stereo not drawn)	nitric oxide scavenging	–	–	113 µM

Repeated from above:
Compound	assay	system	setting	IC50
COc1cccc(/C=N/N2C(=O)c3ccccc3NC2c2cccc(OC)c2O)c1O (stereo not drawn)	photosynthetic electron transport	Spinacia oleracea chloroplasts	–	344 µM
COc1cc(NCCCC(C)N)c2nccc(Cl)c2c1 (stereo not drawn)	angiogenesis, intersomitic vessel count	zebrafish embryo	–	6.3 µM
CCOC(=O)C1=C(CSC2=NCCS2)NC(=O)NC1c1ccc(F)cc1F (stereo not drawn)	nitric oxide scavenging	–	–	113 µM
CC(=O)N[C@@H](CC(N)=O)C(=O)N[C@@H](CC(N)=O)C(=O)N[C@@H](CC(C)C)C(=O)N[C@H]1CSSC[C@@H](C(=O)N[C@H](C(N)=O)[C@@H](C)O)NC(=O)[C@H](CCCNC(=N)N)NC(=O)[C@H](Cc2c[nH]cn2)NC(=O)[C@H](Cc2cccc3ccccc23)NC(=O)CNC(=O)[C@H](Cc2c[nH]c3ccccc23)NC(=O)[C@H](CC(=O)O)NC(=O)[C@H](CCC(N)=O)NC(=O)[C@H](Cc2c[nH]c3ccccc23)NC(=O)[C@H](C(C)C)NC1=O	complement activation, inhibitor, ELISA, refers to: C3b	normal human serum	–	2.75 ± 0.11 µM
O=C(Cc1ccc(Cl)cc1Cl)NNC(=S)N=Cc1ccccc1[N+](=O)[O-]	hydroxyl radical scavenging	–	–	63.6 ± 1.73 µM
O=C1O[C@H]([C@@H](O)CO)C(O)=C1O	DPPH radical scavenging	–	–	12.8 ± 0.44 µg/mL
CCN(CC)c1ccc(/C=N/c2ccc(F)cc2)c(O)c1	ferric reducing power, FRAP	–	–	> 400 µM
CC(C)(C)c1ccc(S(=O)(=O)Nc2cccc(Cl)c2)cc1	CoA-CPM signal reduction, CPM fluorescence thiol	cell-free biochemical	assay interference counter-screen, added: CoA replacing acetyl-CoA	> 125 µM
